Results collected from several papers.
Lines come from different studies, so protocols differ. ± gives the spread as reported.
Organism: Escherichia coli

CC[C@H](C)[C@H](NC(=O)CN)C(=O)N[C@@H](CCCCN)C(=O)N[C@@H](Cc1ccccc1)C(=O)N[C@@H](Cc1ccccc1)C(=O)N[C@@H](CC(C)C)C(=O)N[C@@H](CCCCN)C(=O)N[C@@H](CCCCN)C(=O)N[C@@H](CC(C)C)C(=O)N[C@@H](CCCCN)C(=O)N[C@@H](CCCCN)C(=O)N[C@@H](Cc1c[nH]cn1)C(N)=O — MIC (broth microdilution; ATCC 25922, LB medium; 16 to 20 h, 37 °C): 100 µg/mL
N=C(N)NCCC[C@H](NC(=O)[C@H](Cc1c[nH]cn1)NC(=O)[C@@H]1CCCN1C(=O)[C@H](CS)NC(=O)[C@@H]1CCCN1)C(=O)N[C@@H](CS)C(=O)O — MIC (broth microdilution; MTCC 443; 37 °C): 50 µg/mL
CC(C)C[C@H](NC(=O)[C@H](CCCNC(=N)N)NC(=O)[C@@H]1CCCN1C(=O)[C@H](CCCNC(=N)N)NC(=O)[C@@H]1CCCN1C(=O)[C@@H]1CCCN1C(=O)[C@H](CCCNC(=N)N)NC(=O)[C@@H]1CCCN1C(=O)[C@H](CCC(N)=O)NC(=O)[C@@H]1CCCN1C(=O)[C@H](CCCNC(=N)N)NC(=O)[C@H](Cc1ccc(O)cc1)NC(=O)[C@@H](NC(=O)[C@@H]1CCCN1C(=O)[C@H](CCCCN)NC(=O)[C@H](CC(N)=O)NC(=O)[C@H](CC(N)=O)NC(=O)CN)C(C)C)C(=O)O — MIC (JW0368 ΔsbmA; 18 h, 37 °C, 12.5% Mueller-Hinton broth): 0.133 ± 0.061 µM
CC(C)[C@H](NC(=O)[C@H](CCCCN)NC(=O)CNC(=O)CNC(=O)[C@H](CCC(N)=O)NC(=O)[C@H](CCCCN)NC(=O)CNC(=O)[C@H](CCCNC(=N)N)NC(=O)CNC(=O)[C@@H](N)CCCCN)C(=O)N[C@@H](CCCNC(=N)N)C(=O)N[C@@H](C)C(=O)N[C@@H](CCCCN)C(=O)N[C@@H](C)C(=O)N[C@@H](CCCCN)C(=O)N[C@H](C(=O)N[C@@H](CCCNC(=N)N)C(=O)N[C@@H](CO)C(=O)N[C@@H](CO)C(=O)O)[C@@H](C)O — MIC (broth microdilution; K12; 37 °C): > 84 µM
CC[C@H](C)[C@H](NC(=O)[C@@H]1CCCN1C(=O)[C@H](CCCCN)NC(=O)[C@@H]1CCCN1C(=O)[C@@H]1CCCN1C(=O)[C@@H](NC(=O)[C@@H]1CCCN1C(=O)[C@H](CCCNC(=N)N)NC(=O)[C@@H]1CCCN1C(=O)[C@H](CCCNC(=N)N)NC(=O)[C@H](Cc1ccc(O)cc1)NC(=O)[C@H](CO)NC(=O)CNC(=O)[C@H](CCCCN)NC(=O)[C@H](CC(=O)O)NC(=O)[C@@H](N)C(C)C)[C@@H](C)O)C(=O)N[C@@H](Cc1ccc(O)cc1)C(=O)N[C@@H](CC(N)=O)C(=O)N[C@@H](CCCNC(=N)N)C(=O)N[C@@H](CC(N)=O)C(=O)O — MIC (broth microdilution; BW25113, 5% M9 medium): 0.15 ± 0.034 µM
EVEPSDTIENVKAKIQ — MIC (peptide, DH5α, Luria broth; overnight, 37 °C): 10 µM
CC(C)C[C@H](NC(=O)[C@H](C)NC(=O)CNC(=O)[C@@H](NC(=O)[C@@H](NC(=O)[C@H](CCCCN)NC(=O)[C@H](CCCCN)NC(=O)[C@@H](NC(=O)[C@H](CC(C)C)NC(=O)[C@H](CCCCN)NC(=O)[C@H](CC(C)C)NC(=O)[C@H](CC(C)C)NC(=O)[C@@H](N)CCCCN)C(C)C)C(C)C)C(C)C)C(=O)NCC(N)=O — MIC (ATCC 25922, CAMHB; 18 h, 37 °C): > 22 µM
CC[C@H](C)[C@H](NC(=O)[C@H](CCCNC(=N)N)NC(=O)[C@@H]1CCCN1C(=O)[C@H](Cc1c[nH]cn1)NC(=O)[C@@H]1CCCN1C(=O)[C@@H]1CCCN1C(=O)[C@H](CCCNC(=N)N)NC(=O)[C@@H]1CCCN1C(=O)[C@H](CCC(N)=O)NC(=O)[C@@H]1CCCN1C(=O)[C@@H](NC(=O)[C@H](Cc1ccc(O)cc1)NC(=O)[C@@H](NC(=O)[C@@H]1CCCN1C(=O)[C@H](CCCNC(=N)N)NC(=O)[C@H](CC(N)=O)NC(=O)[C@H](CC(N)=O)NC(=O)CN)C(C)C)[C@@H](C)CC)C(=O)O — MIC (broth microdilution; K12; 37 °C): > 100 µM
CC(C)C[C@H](NC(=O)[C@H](CCCCN)NC(=O)[C@H](Cc1c[nH]c2ccccc12)NC(=O)[C@H](CCCCN)NC(=O)[C@H](CC(C)C)NC(=O)[C@H](Cc1c[nH]c2ccccc12)NC(=O)[C@H](CC(C)C)NC(=O)[C@H](CCCCN)NC(=O)[C@H](CC(C)C)NC(=O)[C@H](CCCCN)NC(=O)[C@H](CCCCN)NC(=O)[C@@H](N)Cc1c[nH]c2ccccc12)C(=O)N[C@@H](Cc1c[nH]c2ccccc12)C(N)=O — MIC (broth microdilution; ATCC 25922, LB medium; 16 to 20 h, 37 °C): 100 µg/mL
CC[C@H](C)[C@H](NC(=O)[C@H](CC(C)C)NC(=O)CNC(=O)[C@H](CO)NC(=O)[C@@H](NC(=O)[C@H](CC(C)C)NC(=O)[C@@H](N)CC(N)=O)C(C)C)C(=O)N[C@@H](CCC(=O)O)C(=O)N[C@@H](C)C(=O)N[C@@H](CCCNC(=N)N)C(=O)N[C@@H](CCCCN)C(=O)N[C@@H](Cc1ccc(O)cc1)C(=O)N[C@@H](CC(C)C)C(=O)N[C@@H](CCC(=O)O)C(=O)N[C@@H](CCC(N)=O)C(=O)N[C@@H](CC(C)C)C(=O)N[C@@H](Cc1c[nH]cn1)C(=O)N[C@@H](CCCNC(=N)N)C(=O)N[C@@H](CCCCN)C(=O)N[C@@H](CC(C)C)C(=O)N[C@@H](CCCCN)C(=O)N[C@@H](CC(N)=O)C(=O)N[C@@H](CCCNC(=N)N)C(=O)N[C@@H](CCCCN)C(=O)N[C@H](C(=O)O)C(C)C — MIC (broth microdilution; K12; 37 °C): > 92 µM
CC[C@H](C)[C@H](NC(=O)[C@H](C)N)C(=O)N[C@@H](CCCCN)C(=O)N[C@H](C(=O)N[C@@H](CCCNC(=N)N)C(=O)N[C@@H](CCCCN)C(=O)N[C@@H](CC(C)C)C(=O)N[C@@H](Cc1ccccc1)C(=O)N[C@@H](CCCCN)C(=O)N[C@@H](CCCCN)C(=O)N[C@@H](CC(C)C)C(=O)N[C@@H](CC(C)C)C(=O)N[C@@H](CCCNC(=N)N)C(N)=O)[C@@H](C)CC — MIC (broth microdilution; ATCC 25922, LB medium; 16 to 20 h, 37 °C): 50 to 100 µg/mL
CC[C@H](C)[C@H](NC(=O)CNC(=O)[C@H](CC(=O)O)NC(=O)[C@H](CCCNC(=N)N)NC(=O)[C@@H](NC(=O)[C@H](CC(N)=O)NC(=O)[C@H](CCC(N)=O)NC(=O)CNC(=O)[C@@H](NC(=O)[C@H](CCCCN)NC(=O)[C@H](CCC(=O)O)NC(=O)[C@@H](NC(=O)[C@H](CCCCN)NC(=O)[C@H](CCCCN)NC(=O)[C@H](Cc1ccccc1)NC(=O)[C@H](CC(C)C)NC(=O)[C@H](CCCCN)NC(=O)[C@H](Cc1c[nH]c2ccccc12)NC(=O)[C@@H](N)CCCCN)[C@@H](C)CC)C(C)C)[C@@H](C)CC)C(=O)N[C@H](C(=O)N[C@@H](CCCCN)C(=O)N[C@@H](C)C(=O)NCC(=O)N1CCC[C@H]1C(=O)N[C@@H](C)C(=O)N[C@H](C(=O)N[C@@H](C)C(=O)N[C@H](C(=O)N[C@H](C(=O)NCC(=O)N[C@@H](CCC(N)=O)C(=O)N[C@@H](C)C(=O)N[C@H](C(=O)N[C@@H](CCC(N)=O)C(=O)N[C@H](C(=O)N[C@@H](C)C(=O)N[C@@H](CCCCN)C(N)=O)[C@@H](C)CC)[C@@H](C)O)C(C)C)C(C)C)C(C)C)[C@@H](C)CC — MIC (bacterial growth; DH5α; 37 °C): 3 µM
CC[C@H](C)[C@H](NC(=O)CNC(=O)[C@H](CC(=O)O)NC(=O)[C@H](CCCNC(=N)N)NC(=O)[C@@H](NC(=O)[C@H](CC(N)=O)NC(=O)[C@H](CCCNC(=N)N)NC(=O)CNC(=O)[C@@H](NC(=O)[C@H](CCCCN)NC(=O)[C@H](CCC(=O)O)NC(=O)[C@@H](NC(=O)[C@H](CCCCN)NC(=O)[C@H](CCCCN)NC(=O)[C@H](Cc1ccccc1)NC(=O)[C@@H](NC(=O)[C@H](CCCCN)NC(=O)[C@H](Cc1c[nH]c2ccccc12)NC(=O)[C@@H](N)CCCCN)[C@@H](C)CC)[C@@H](C)CC)C(C)C)C(C)C)C(=O)N[C@H](C(=O)N[C@@H](CCCCN)C(=O)N[C@@H](C)C(=O)NCC(=O)N1CCC[C@H]1C(=O)N[C@@H](C)C(=O)N[C@H](C(=O)N[C@@H](CCC(N)=O)C(=O)N[C@H](C(=O)N[C@H](C(=O)NCC(=O)N[C@@H](CCC(N)=O)C(=O)N[C@@H](C)C(=O)N[C@H](C(=O)N[C@@H](CO)C(=O)N[C@H](C(=O)N[C@@H](C)C(=O)N[C@@H](CCCCN)C(N)=O)[C@@H](C)CC)[C@@H](C)O)C(C)C)C(C)C)C(C)C)[C@@H](C)CC — MIC (broth microdilution; DH5α; 20 h, 37 °C): 4.9 ± 2.3 µg/mL
CC[C@H](C)[C@H](NC(=O)[C@H](CCCNC(=N)N)NC(=O)[C@@H](N)CCCNC(=N)N)C(=O)N[C@@H](CCCNC(=N)N)C(=O)N[C@@H](CCCCN)C(=O)N[C@@H](CCCNC(=N)N)C(=O)N1CCC[C@H]1C(=O)N1CCC[C@H]1C(=O)N[C@@H](CCCNC(=N)N)C(=O)N[C@@H](CC(C)C)C(=O)N1CCC[C@H]1C(=O)N[C@@H](CCCNC(=N)N)C(=O)N1CCC[C@H]1C(=O)N[C@@H](CCCNC(=N)N)C(=O)N1CCC[C@H]1C(=O)N[C@@H](CCCCN)C(=O)O — MIC (broth microdilution; BW25113 parental, Mueller-Hinton broth; 18 h, 37 °C): 0.078 ± 0.032 µM

A few entries again:
CC[C@H](C)[C@H](NC(=O)[C@H](CCCNC(=N)N)NC(=O)[C@@H](N)CCCNC(=N)N)C(=O)N[C@@H](CCCNC(=N)N)C(=O)N[C@@H](CCCCN)C(=O)N[C@@H](CCCNC(=N)N)C(=O)N1CCC[C@H]1C(=O)N1CCC[C@H]1C(=O)N[C@@H](CCCNC(=N)N)C(=O)N[C@@H](CC(C)C)C(=O)N1CCC[C@H]1C(=O)N[C@@H](CCCNC(=N)N)C(=O)N1CCC[C@H]1C(=O)N[C@@H](CCCNC(=N)N)C(=O)N1CCC[C@H]1C(=O)N[C@@H](CCCCN)C(=O)O — MIC (broth microdilution; BW25113 parental, Mueller-Hinton broth; 18 h, 37 °C): 0.078 ± 0.032 µM
EVEPSDTIENVKAKIQ — MIC (peptide, DH5α, Luria broth; overnight, 37 °C): 10 µM
